# Published values collected from several papers.
# Compare with care: the assays were run in different laboratories. “And” joins repeats or separate records; there may be more than shown. Numbers after ± are the reported error.
# UCHL1: Ubiquitin carboxyl-terminal hydrolase isozyme L1 (UCHL1, Homo sapiens, UniProt P09936)
# Chain of UniProt P09936 (whole entry, looked up): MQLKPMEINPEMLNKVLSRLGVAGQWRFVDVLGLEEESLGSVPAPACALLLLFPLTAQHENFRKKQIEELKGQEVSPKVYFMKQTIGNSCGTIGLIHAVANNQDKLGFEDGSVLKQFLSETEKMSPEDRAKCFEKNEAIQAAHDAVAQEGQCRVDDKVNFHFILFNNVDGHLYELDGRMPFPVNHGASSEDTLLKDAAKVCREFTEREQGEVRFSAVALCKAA
SMILES,tested on,assay,test system,setting,scale,measurement,result
Cc1cc(C#N)cc(C)c1Oc1nc(Nc2ccc(C#N)cc2)nc(N)c1Br,,solvent-shift UV,FaSSIF with 0.1% HPMC,,,maximum supersaturated concentration,95 µg/mL
COc1ccc(C[C@@H](C)[C@@H](C)Cc2ccc(OC)c(OC)c2)cc1OC,,,"beagle dog female, plasma","oral, 100 mg/kg/day, day 1, median",,Tmax,2 h
CC1(C)C(/C=C/C=C/C=C2/N(CCCCCC(=O)NCCC(=O)N3Cc4ccccc4C#Cc4ccccc43)c3ccc(S(=O)(=O)O)cc3C2(C)C)=[N+](CCCS(=O)(=O)[O-])c2ccc(S(=O)(=O)O)cc21,,,"C57BL/6 mouse, azido-sugar treated, RBC membrane","intravenous, single dose",,retention time,> 5 weeks
CNc1ccc(-c2nc3ccc(O)cc3s2)cc1 [carbon-11 labelled],,ex vivo biodistribution,"APP/PS1 mouse, AD model, lungs","intravenous, 30 min",,SUV,0.398 ± 0.22
O=C(COc1ccc(Cl)cc1)NC12CC(c3nnc([C@H]4C[C@@H](OC(F)(F)F)C4)o3)(C1)C2,,measured: Epistaxis,"healthy humans, both sexes","oral, 400 mg, single ascending dose",relative to: subjects,treatment-emergent adverse events,16.7%
CC(C)C[C@H](NC(=O)[C@@H](Cc1c[nH]c2ccccc12)NC(=O)[C@H](Cc1ccc(O)cc1)NC(=O)[C@H](CO)NC(=O)[C@H](Cc1c[nH]c2ccccc12)NC(=O)[C@H](Cc1c[nH]cn1)NC(=O)[C@@H]1CCC(=O)N1)C(=O)N[C@@H](CCCNC(=N)N)C(=O)N1CCC[C@H]1C(=O)NCC(N)=O,,,"Chinese CPP children, girls","intramuscular, 22.5 mg, 12 months, day 1, month 6",,"patients, grade ≥3 TEAEs",0%
Cc1c2oc3c(C)ccc(C(=O)N[C@@H]4C(=O)N[C@H](C(C)C)C(=O)N5CCC[C@H]5C(=O)N(C)CC(=O)N(C)[C@@H](C(C)C)C(=O)O[C@@H]4C)c3nc-2c(C(=O)N[C@@H]2C(=O)N[C@H](C(C)C)C(=O)N3CCC[C@H]3C(=O)N(C)CC(=O)N(C)[C@@H](C(C)C)C(=O)O[C@@H]2C)c(N)c1=O,,LC-MS,"children with cancer, plasma","dose not given, 2 h",,maximum plasma concentration,24.8 µg/L
COc1cc2c3c(n(CCCN4CCOCC4)c(=O)c2cc1OC)-c1cc2c(cc1C3=O)OCO2,,,"beagle dog, female, plasma","intravenous infusion, 430 mg/m^2, 1 h infusion",,Cmax,2120 ng/mL and 1020 ng/mL
CC[C@H](C)[C@H](NC(=O)CN)C(=O)N[C@@H](C)C(=O)N[C@@H](CCCCN)C(=O)N[C@@H](C)C(=O)N[C@H](C(=O)N[C@@H](CCCCN)C(=O)N[C@@H](CCCCN)C(=O)N[C@H](C(=O)N[C@@H](C)C(=O)N[C@@H](CCCCN)C(=O)N[C@@H](C)C(=O)N[C@@H](CC(C)C)C(=O)NCC(N)=O)[C@@H](C)CC)[C@@H](C)CC,,circular dichroism at 222 nm,10 mM SDS,"100 µM, pH 4.0",,mean residue ellipticity,-6800 deg cm2/dmol
CC(C)NCC(O)c1ccc(NS(C)(=O)=O)cc1 (racemic),,,"male Hartley guinea pigs, anaesthetized","intravenous, 3 mg/kg over 10 min, after infusion",,mean blood pressure,34 ± 0.3 mmHg
CNC(=O)c1ccc(-c2cnc3ncc(Cc4ccc5ncccc5c4)n3n2)cc1F,,"CTCAE v4.0, any causality",human cancer patients,"oral, 600 mg twice daily, expansion, other tumours, RP2D",,dry mouth incidence (all grades),17%
CC(NC(=O)C(C#N)=Cc1cc(O)ccc1[N+](=O)[O-])c1ccccc1 (centres unmarked),UCHL1,"covalent, intact protein LC-MS",,12.5 µM,,labelling,9.91%
COc1nc(-c2cc(C)c(N[C@@H](C)c3cc(F)cc(F)c3)nn2)ccc1-n1cnc(C)c1,,,"cynomolgus monkey, male, plasma","oral, 2 mg/kg",,t1/2,4.1 h
Cc1nccc2c1c(=O)n(C)c1cc(OC[C@@H](N)CC(C)C)c(C#N)cc21,,,"rat, lumbar spinal cord","intrathecal, 0.3 µg, 30 min",,concentration,90.8 nM
Cc1ccc([C@@H]2O[C@H](CO)[C@@H](O)[C@H](O)[C@H]2O)cc1Cc1ccc(-c2ccc(F)cc2)s1,,measured: inorganic phosphorus,Japanese type 2 diabetes patients,"25 mg, day 5, 24 h urine collection",relative to: baseline,urinary phosphate excretion change,-36.4 mg
Cc1ccc(Sc2ccccc2N2CCNCC2)c(C)c1,,measured: AST increased,healthy adult men,"oral, 5 mg daily, 12 days",,participants with TEAE,16.7%
CC(c1ccc(C(F)(F)F)c(Cl)c1)N(C)C(=O)CCl (centres unmarked),UCHL1,"covalent, intact protein LC-MS",,12.5 µM,,labelling,12.8%
COc1ccc(-c2csc(NC(=O)c3ccc(C(=O)Nc4nc(-c5ccc(OC)c(OC)c5)cs4)s3)n2)cc1OC,,,sheep erythrocytes,"1 h, pH 7.5",,maximum haemolysis,11.7%
O=C1CC[C@H](N2Cc3cc(N4CCN(CC5CCN(c6ccc([C@@H]7c8ccc(O)cc8CC[C@@H]7c7ccccc7)cc6)CC5)CC4)ccc3C2=O)C(=O)N1,,,"human, plasma","oral, 200 mg, median, range, with: dabigatran etexilate 75 mg",,Tlast,49.5 h
C[C@H]1CNC(=O)c2cnn3ccc(nc23)N[C@H](C)c2cc(F)ccc2O1,,,"Balb/c nude mice, female, brain","oral, 15 mg/kg twice daily, 1 h, steady state",,unbound concentration,3.1 ± 0.7 nM
CCN1/C(=C/C(C)=O)Sc2ccc(F)cc21,,,cynomolgus monkey,"oral, 30 mg/kg, 0.5 h post-dose",,mean blood pressure,87 ± 6 mmHg
COc1cc2c3cc1Oc1c(OC)c(OC)cc4c1[C@@H](Cc1ccc(O)c(c1)Oc1ccc(cc1)C[C@@H]3N(C)CC2)N(C)CC4,,,"mouse plasma, K3EDTA","4 h, 25-26 °C, room temperature",,remaining compound,92%
COCc1cc(C(=O)Nc2cc([C@H]3CC[C@@H](OC(=O)NC(C)C)C3)[nH]n2)n(C)n1,,,"OVCAR-3 xenograft, NOD/SCID gamma mice, plasma","oral, 75 twice daily, tumour growth inhibition study",,unbound C24h,85 nM
O=C(CCCN1CC=C(n2c(=O)[nH]c3ccccc32)CC1)c1ccc(F)cc1,,,"male Hartley guinea pigs, anaesthetized","intravenous, 0.3 mg/kg group, baseline before infusion",,mean blood pressure,37 ± 0.1 mmHg
CCO[C@H]1CCN(Cc2c(OC)cc(C)c3[nH]ccc23)[C@H](c2ccc(C(=O)O)cc2)C1,,,"PNH patients, active haemolysis","oral, 200 mg, 8 weeks, treatment",,incidence of oropharyngeal pain,0%
CC(C)(C)c1ccc(C(O)CCCN2CCC(C(O)(c3ccccc3)c3ccccc3)CC2)cc1 (centres unmarked),,,"male Hartley guinea pigs, anaesthetized","intravenous, 0.3 mg/kg over 10 min, after infusion",,mean blood pressure,33 ± 0.1 mmHg
Cc1cc(C)cc(C(=O)c2c(C(C)C)c(=O)[nH]c(=O)n2Cc2ccnc(N)c2)c1,,"HPLC-DAD, one-compartment model","rat Sprague-Dawley, male, plasma","intravenous bolus, 20 mg/kg",,C0,202 ± 182 ng/mL
Cc1cc(-c2nccc3c2ccn3CC(=O)Nc2ccc(-c3cnccn3)cn2)ccn1,,,human,"20 mg once daily, multiple ascending dose",,subjects with Dysgeusia adverse event,11.1%
Cc1cc(C)c(CNC(=O)c2cc(Cl)c3c(c2C)O[C@@](C)([C@H]2CC[C@H](N(C)C)CC2)O3)c(=O)[nH]1,,,human relapsed/refractory NHL,"oral, 200 mg once daily, onset after cycle 1 day 1",,ALT increased grade ≥3,4.2%
OC[C@H]1O[C@@H](c2ccc(Cl)c(Cc3ccc(O[C@H]4CCOC4)cc3)c2)[C@H](O)[C@@H](O)[C@@H]1O,,,"Japanese type 1 diabetes patients, blood","25 mg, day 28",relative to: baseline,change in AST,2 U/L
Cc1nn(C)cc1S(=O)(=O)NC(=O)c1ccc(-n2ccc(OCC(C)(C)C(F)(F)F)n2)nc1N1C[C@@H](C)CC1(C)C,,,,,,pKa (acidic),5
C=CC(=O)Nc1cc(Nc2nccc(-c3cn(C4CC4)c4ccccc34)n2)c(OC)cc1N(C)CCN(C)C,,,"BALB/c nude mouse, LU0387 xenograft, serum","oral, 40 mg/kg",,AST activity,98 ± 11.3 U/L
Cc1noc(C)c1Cn1cc(N2C(=O)CN(Cc3cccc(O)c3)C2=O)cn1,,,pooled rat liver microsomes Sprague-Dawley,"10 µM, 120 min, pH 7.4",,remaining parent,105 % peak area
[Cl-].c1csc([I+]c2cccs2)c1,,,athymic mouse,"intraperitoneal, daily, five of seven days",,maximum tolerated dose,6 mg/kg
CCCCCCCOc1ccc(CCC(N)(CO)CO)cc1C(F)(F)F.Cl,,,"healthy men, plasma","oral, 0.75 mg, day 21",,AUC(0-tau),95.7 ng·h/mL
CCC(=O)NCC[C@@H]1CCc2cc(O)c3c(c21)CCO3,,"sulfation, substrate",pooled human lung cytosol,"50 µM, 30 min, with: 50 mM NaF",,specific activity,1.3 ± 0.26 pmol/min/mg
CCOc1c([C@H](C)n2nc(C)c3c(N)ncnc32)cc(Cl)c(F)c1[C@@H]1CNC(=O)C1,,,"patients, monotherapy","oral, 45 mg once daily, cycle 1 day 1",,Tmax median,1 h
OCc1nc2ccc(NCc3ccc(C(F)(F)F)cc3)cc2[nH]1,,,"Balb/c mice, male, plasma","intravenous, 1 mg/kg",,C0,821 ± 126 ng/mL
CCn1cc(C(=O)N2CCOCC2)c(=O)c2cc(NC3Cc4ccccc4C3)cnc21,,,"human, fasted","oral suspension, 300 mg single dose, arithmetic mean",,AUC(0-inf),4930 ng·h/mL
Cc1cc([C@H]2C[C@H]3[C@@H](CF)SC(N)=N[C@@]3(c3ccc(F)cc3F)CO2)on1,,,"male 129/SVE mouse, brain","subcutaneous, 30 mg/kg, 1 h",,brain concentration,7340 nM
CCC(CC)C(=O)Oc1cccc(C(O)CCN)c1.O=CO (centres unmarked),,scotopic ERG,BALB/cJ mice,"intraperitoneal, 10 mg/kg, 2 h dark adaptation, with: 10,000 lx photobleach, 10 min",,ERG b-wave amplitude,30 µV and 26 µV and 29 µV and 36 µV and 20 µV and 144 µV
O=C(O)CCC(=O)O.[2H]C([2H])([2H])Oc1cc(C)c2[nH]ccc2c1CN1CC[C@@H](C2CC2)C[C@H]1c1ccc(C(=O)O)cc1,,,healthy Chinese subjects,"400 mg, single ascending dose",,TEAE urine bacteria positive,0%
Cc1ccc2c(c1)C(=O)[C@]1(O)CCN(c3ccc4nc(C)ccc4c3)C1=N2,,,"rat, plasma","subcutaneous, 70 mg/kg, 1 h",,plasma concentration,3600 ± 400 nM
N[C@@H](Cc1cc(I)c(Oc2cc(I)c(O)c(I)c2)c(I)c1)C(=O)O,,,,,,pKa (acidic),3.9
C[C@H]1CN(C(=O)CC#N)[C@]12CCN(c1ncnc3[nH]ccc13)C2,,,healthy human,"oral, 6 mg single",,subjects with Dizziness,0%
COc1ccc([C@@H](O)c2cc(-c3ncnc4cc(N5CCOCC5)ccc34)c(F)cc2Cl)nn1,,,locally advanced rectal cancer patients,"150 mg, with: capecitabine and radiotherapy",,investigations TEAE,50%
CC(F)(F)c1cc(F)ccc1-c1sc2cc(O)ccc2c1Oc1ccc(/C=C/C(=O)O)cc1,,,"human, serum","oral, 450 mg once daily, cycle 1 day 28, fasted, mean",,AUC(0-last),22600 ng·h/mL
